Measurements pooled from the literature.
Compare with care: the assays were run in different laboratories. ± marks the error that the study gave.

| SMILES | cell line | read-out | technique | time | CC50 [µM] |
| --- | --- | --- | --- | --- | --- |
| Oc1cc(O)c2c(c1)OC(c1ccc(O)c(O)c1)C(O)C2c1c(O)cc(O)c2c1OC(c1ccc(O)c(O)c1)C(O)C2 (stereo not drawn) | HEK293T |  |  | 48 h | > 100 |
| Nc1ccc(-n2[se]c3ccccc3c2=O)cc1 | HPAEpiC | cell growth or viability | MTT | 24 h | 49.6 |
| Nc1nc2nc[nH]c2c(=S)[nH]1 | HEK293T |  |  | 48 h | > 100 |
| C[C@H]1[C@@H](OCc2nnn(-c3cc4ccc(O)cc4oc3=O)c2CO[C@H]2O[C@@H]3O[C@@]4(C)CC[C@H]5[C@H](C)CC[C@@H]([C@H]2C)[C@@]35OO4)O[C@@H]2O[C@@]3(C)CC[C@H]4[C@H](C)CC[C@@H]1[C@@]24OO3 | J774 | cell growth or viability | ATP luminescence | 72 h | 5.21 |
| O=C(N[C@@H](Cc1ccccc1)C(=O)N[C@@H](C[C@@H]1CCNC1=O)C(O)S(=O)(=O)O)OCc1ccccc1 (stereo partly drawn) | RD |  |  | 5 (unit not given) | 93.2 ± 5.7 |
| CCCNC(=O)C1OC1C(=O)NC(C(=O)N1CCCC1C(=O)OC)C(C)CC (stereo not drawn) | HEK293T |  |  | 48 h | 47.7 |
| Nc1cccc(-n2[se]c3ccccc3c2=O)c1 | HPAEpiC | cell growth or viability | MTT | 24 h | > 100 |
| CCN(CC)C(=S)SSC(=S)N(CC)CC | HEK293T |  |  | 48 h | 86.7 |
| O=c1c2ccccc2[se]n1-c1ccnc(Cl)c1 | HPAEpiC | cell growth or viability | MTT | 24 h | > 100 |
| O=C(CCN(CCC(=O)N[C@@H](Cc1c[nH]c2ccccc12)C(=O)O)C(=O)CCN(CCC(=O)N(CCC(=O)N[C@@H](Cc1c[nH]c2ccccc12)C(=O)O)CCC(=O)N[C@@H](Cc1c[nH]c2ccccc12)C(=O)O)C(=O)c1cc(C(=O)N(CCC(=O)N(CCC(=O)N[C@@H](Cc2c[nH]c3ccccc23)C(=O)O)CCC(=O)N[C@@H](Cc2c[nH]c3ccccc23)C(=O)O)CCC(=O)N(CCC(=O)N[C@@H](Cc2c[nH]c3ccccc23)C(=O)O)CCC(=O)N[C@@H](Cc2c[nH]c3ccccc23)C(=O)O)cc(C(=O)N(CCC(=O)N(CCC(=O)N[C@@H](Cc2c[nH]c3ccccc23)C(=O)O)CCC(=O)N[C@@H](Cc2c[nH]c3ccccc23)C(=O)O)CCC(=O)N(CCC(=O)N[C@@H](Cc2c[nH]c3ccccc23)C(=O)O)CCC(=O)N[C@@H](Cc2c[nH]c3ccccc23)C(=O)O)c1)N[C@@H](Cc1c[nH]c2ccccc12)C(=O)O | HEL or HeLa cells | cell viability |  |  | > 100 |
| O=c1c2ccccc2[se]n1-c1cccc(F)c1 | HPAEpiC | cell growth or viability | MTT | 24 h | > 100 |
| C[C@H]1[C@H](OC(=O)CCC(=O)OCc2nnn(-c3cc4ccc(O)cc4oc3=O)c2COC(=O)CCC(=O)O[C@@H]2O[C@@H]3O[C@@]4(C)CC[C@H]5[C@H](C)CC[C@@H]([C@H]2C)[C@@]35OO4)O[C@@H]2O[C@@]3(C)CC[C@H]4[C@H](C)CC[C@@H]1[C@@]24OO3 | J774 | cell growth or viability | ATP luminescence | 72 h | 32.8 |

Some of these lines once more:
| SMILES | cell line | read-out | technique | time | CC50 [µM] |
| --- | --- | --- | --- | --- | --- |
| O=C(CCN(CCC(=O)N[C@@H](Cc1c[nH]c2ccccc12)C(=O)O)C(=O)CCN(CCC(=O)N(CCC(=O)N[C@@H](Cc1c[nH]c2ccccc12)C(=O)O)CCC(=O)N[C@@H](Cc1c[nH]c2ccccc12)C(=O)O)C(=O)c1cc(C(=O)N(CCC(=O)N(CCC(=O)N[C@@H](Cc2c[nH]c3ccccc23)C(=O)O)CCC(=O)N[C@@H](Cc2c[nH]c3ccccc23)C(=O)O)CCC(=O)N(CCC(=O)N[C@@H](Cc2c[nH]c3ccccc23)C(=O)O)CCC(=O)N[C@@H](Cc2c[nH]c3ccccc23)C(=O)O)cc(C(=O)N(CCC(=O)N(CCC(=O)N[C@@H](Cc2c[nH]c3ccccc23)C(=O)O)CCC(=O)N[C@@H](Cc2c[nH]c3ccccc23)C(=O)O)CCC(=O)N(CCC(=O)N[C@@H](Cc2c[nH]c3ccccc23)C(=O)O)CCC(=O)N[C@@H](Cc2c[nH]c3ccccc23)C(=O)O)c1)N[C@@H](Cc1c[nH]c2ccccc12)C(=O)O | HEL or HeLa cells | cell viability |  |  | > 100 |
